Measurements collected from several papers.
A part holds a random share of what one study measured. Changes are numbered by the printed parent chain.

Series 1 — technique: DHFR PCA, deep sequencing; medium: yeast; with: (+)-ABA 0.032 µM; reference: wild-type fitted maximum; direction: higher = stronger binding
Target: ABI1, truncated, D143A, DHFR fusion (Arabidopsis thaliana)
Notes: methotrexate growth selection, single substitutions
Starting sequence: PYL1, truncated, DHFR fusion (Arabidopsis thaliana); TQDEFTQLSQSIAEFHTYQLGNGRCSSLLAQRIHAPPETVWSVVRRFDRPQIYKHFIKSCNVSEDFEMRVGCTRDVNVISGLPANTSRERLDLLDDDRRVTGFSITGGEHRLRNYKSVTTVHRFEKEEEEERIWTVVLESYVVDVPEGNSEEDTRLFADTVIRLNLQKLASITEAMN
Change	relative binding score [%]
T17F	-5.2
S104F	-0.778
L20A	38.5
D48L	2.92
F157Y	38
F56N	-4.52
D75G	-3.85
A175C	7.63
D97Y	9.84

Series 2 — target: CCNE2, cyclin fold, Cln2 fusion (human); technique: yeast growth competition, sequencing; medium: yeast; notes: weak parent motif; reference: not given; direction: higher = stronger binding
Starting sequence: ORC1 docking peptide (human); PRARKRLELGNLG
Change	normalised enrichment score
R4N	0.752
R2N	0.899
L7R	1.24
N11Q	-0.294
R4E	0.637
K5S	0.453
L7E	0.266
L9V	1.36
R6P	0.0175
L9A	0.722
R4H	0.429
E8T	-0.347

Series 3 — technique: RNA Bind-n-Seq; form: RNA; medium: in vitro; concentration: 365 nM; reference: no-protein control; direction: higher = stronger binding
Target: RNA binding protein fox-1 homolog 2, RRM domain, GST-SBP tag (RBFOX2, Homo sapiens, UniProt O43251-10, residues 100-194)
Notes: natural RNA segment, single round, ends assumed
Target sequence (chain): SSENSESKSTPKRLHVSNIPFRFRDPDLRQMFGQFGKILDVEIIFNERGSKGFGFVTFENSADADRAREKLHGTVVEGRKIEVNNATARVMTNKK
Strand	RBNS enrichment (R)
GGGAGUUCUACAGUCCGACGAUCCCAGGAGGCUUGGAGCUUGGACAGUGUGUGGUCUUCUCCCUAUCUUGCCUCCUGAUUUUUUUUUUCUCCCUCCGUUGUUGUUUUGGAAAAAAGUCUACUUUUCCAUCUAAUGGAAUUCUCGGGUGCCAA	0.855
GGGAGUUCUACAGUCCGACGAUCCAUGAACAUGACUUUCCUAAAGUGGAAGGAUCUGUCCCCACCUUCACCCAGUCCUUAGGACAAGUAGAAAGGGGCAUUCUGGCACUUGGCAUAACCUAUGCCACGAUGGUUGGAAUUCUCGGGUGCCAA	0.214
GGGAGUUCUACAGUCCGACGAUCACUUCCAAUGUGACUAAAAAGAGAAAAAAAAUCACUGUGUCACUUUAAAGAAAAAUCUUCUAAGGGAUUUGGAUUUUACUUUCUUUAGAAUGACAAGUGAAUCAUAUUGAUGGAAUUCUCGGGUGCCAA	0.691
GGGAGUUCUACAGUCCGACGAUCGCCAAGGCCGCCAGCGUGUGGAGCAGAGCUCUCCCCUCCUGCUGGGCGUGUGUGACACUGAUGAGUUUCACUGUACUGCAUGUGACUUCUCCCCUGCCCUUCCUCCUGAUUGGAAUUCUCGGGUGCCAA	1.77
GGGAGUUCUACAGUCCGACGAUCUUUAUGUGAUUGUACAGUAUUAAAAGUUUUUUCUUAUGUACAGUAAACUUUAUCAUAUGGCAGAAGCCUCUAUUGUGUUAAAUAAAUUAGUAUUUCAUAUAUAUACAUAUUGGAAUUCUCGGGUGCCAA	0.939
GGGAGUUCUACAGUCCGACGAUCAGGUUUCCUCGGGCCUGUUUUGACUGAUUGCUGGAGUGCAUUUGAUAGUUAAAAAUUACUAAUUGGUUUUAUUUCCCUUCACACUCUGCCUCCCCACUUCUCCCCCCGUUUGGAAUUCUCGGGUGCCAA	0.368
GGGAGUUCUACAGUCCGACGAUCUGUGUCUAAGAUGAAAUAAAAUGUAACUUUUGCUGCAGUGGUAUGUUUCUUUUGGAGUACAACAUGUAUGCCGUUUACAACACACACAUGGUAACGGGGAUCACAUGCUCUGGAAUUCUCGGGUGCCAA	0.297
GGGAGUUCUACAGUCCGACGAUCCCAGCAGGCAGGUGUUCUGAGGCUGGUCCCUCCUCAGUUUCCGCAGCCACAAGGCGAAACGGCCAGAUUCUCACUCAAGGUCGUUCUCACUCCUUUUCCUGUCCCGUUUCUGGAAUUCUCGGGUGCCAA	0.521
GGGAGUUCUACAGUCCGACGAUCAUUUAACAAAUGGACUCUCUUAAUUCUACUGGACCCAGGCCUUGAACUUUCUGGUUUCUGUCUCUGUGCUCUGACUUUUUGAUUUCAGGUCUAGCCCUGUGCACUUACCUUGGAAUUCUCGGGUGCCAA	0.506
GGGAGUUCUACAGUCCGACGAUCGAGAUAGAAGUUAUGACAUAUGUAAUACACAUCUGUGUACACAGAAACCGGCACCUGCCAGACAGAGCUGGUUCUAAGAUUUAAUACAGUGCUUUUUUUCCUCUUUGAAAUGGAAUUCUCGGGUGCCAA	0.41
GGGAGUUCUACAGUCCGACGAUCCUCCUACGAGAGUUCUGGCAUAAAGAAGUAAAAAAGAAAAAGAAAAAAACAAACAAAAAAACCAAACCACCUCUACAUAUUAUGGAAAGAAAAUAUUUUUGUCAAUUCUUUGGAAUUCUCGGGUGCCAA	0.801

Further values, each from its own experiment
Substance	target	test	test system	conditions	how to read	quantity	result
PhoQ, residues 284 288 289 292 302 303 SSTMSV	PhoP, residues 12 14 15 18 19 QWHVF (Escherichia coli, UniProt P23836)	Sort-seq, refers to: YFP reporter	E. coli	PhoQ-PhoP variant library, with: 10 µM Mg2+	reference: high Mg2+ state, higher = stronger signaling	fold induction	2.18

Repeated from above (series 1):
Change	relative binding score [%]
D48L	2.92
F56N	-4.52
D75G	-3.85
S104F	-0.778
D97Y	9.84
